Assay results gathered from unrelated publications.
Lines come from different studies, so protocols differ. “And” joins repeats or separate records; there may be more than shown. Numbers after ± are the reported error.
Nuclear receptor subfamily 2 group C member 2 ligand-binding domain: Nuclear receptor subfamily 2 group C member 2, ligand-binding domain (Homo sapiens, UniProt P49116)
Sequence of UniProt P49116 (whole entry, looked up): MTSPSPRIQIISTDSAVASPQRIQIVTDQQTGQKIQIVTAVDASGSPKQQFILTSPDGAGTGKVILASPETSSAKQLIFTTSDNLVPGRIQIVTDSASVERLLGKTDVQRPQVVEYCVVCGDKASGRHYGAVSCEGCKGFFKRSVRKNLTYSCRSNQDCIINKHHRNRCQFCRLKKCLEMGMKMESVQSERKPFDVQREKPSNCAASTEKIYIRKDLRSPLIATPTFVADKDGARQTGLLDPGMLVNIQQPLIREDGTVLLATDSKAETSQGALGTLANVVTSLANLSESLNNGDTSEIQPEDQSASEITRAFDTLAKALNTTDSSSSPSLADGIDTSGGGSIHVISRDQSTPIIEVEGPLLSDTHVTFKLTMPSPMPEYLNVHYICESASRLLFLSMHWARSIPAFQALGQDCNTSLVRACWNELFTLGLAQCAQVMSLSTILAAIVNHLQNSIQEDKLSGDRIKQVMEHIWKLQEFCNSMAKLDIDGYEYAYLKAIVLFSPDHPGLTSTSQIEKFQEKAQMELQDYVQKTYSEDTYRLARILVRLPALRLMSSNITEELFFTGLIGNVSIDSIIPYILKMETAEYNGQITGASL
Sequence of UniProt O14980 (whole entry, looked up): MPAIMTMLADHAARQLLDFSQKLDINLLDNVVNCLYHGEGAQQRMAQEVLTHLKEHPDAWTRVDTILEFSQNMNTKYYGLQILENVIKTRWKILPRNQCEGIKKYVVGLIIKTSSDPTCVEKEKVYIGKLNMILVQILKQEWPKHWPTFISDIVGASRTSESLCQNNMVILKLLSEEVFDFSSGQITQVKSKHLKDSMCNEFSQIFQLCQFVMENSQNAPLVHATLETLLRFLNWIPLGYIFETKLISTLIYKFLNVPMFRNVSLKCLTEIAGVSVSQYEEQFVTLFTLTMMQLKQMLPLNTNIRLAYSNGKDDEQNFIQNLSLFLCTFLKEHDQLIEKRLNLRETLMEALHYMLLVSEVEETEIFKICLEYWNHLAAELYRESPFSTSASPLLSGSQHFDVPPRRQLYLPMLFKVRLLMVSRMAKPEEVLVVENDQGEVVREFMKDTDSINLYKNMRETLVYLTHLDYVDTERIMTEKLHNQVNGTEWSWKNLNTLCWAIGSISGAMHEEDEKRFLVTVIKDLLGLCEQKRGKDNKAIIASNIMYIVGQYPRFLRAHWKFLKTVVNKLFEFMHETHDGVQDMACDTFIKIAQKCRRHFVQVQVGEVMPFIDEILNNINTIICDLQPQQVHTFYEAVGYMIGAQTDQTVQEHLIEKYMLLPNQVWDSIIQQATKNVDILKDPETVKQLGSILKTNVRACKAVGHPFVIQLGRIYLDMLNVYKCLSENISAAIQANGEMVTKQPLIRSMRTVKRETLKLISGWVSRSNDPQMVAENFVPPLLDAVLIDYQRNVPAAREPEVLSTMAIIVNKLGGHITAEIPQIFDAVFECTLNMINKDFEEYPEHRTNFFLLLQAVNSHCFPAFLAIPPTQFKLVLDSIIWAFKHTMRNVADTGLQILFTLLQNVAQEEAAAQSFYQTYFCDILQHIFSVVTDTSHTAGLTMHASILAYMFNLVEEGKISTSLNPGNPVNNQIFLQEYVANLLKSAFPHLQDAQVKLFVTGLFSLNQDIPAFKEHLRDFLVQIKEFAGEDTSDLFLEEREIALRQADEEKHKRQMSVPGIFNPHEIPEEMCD
Sequence of UniProt P11247 (whole entry, looked up): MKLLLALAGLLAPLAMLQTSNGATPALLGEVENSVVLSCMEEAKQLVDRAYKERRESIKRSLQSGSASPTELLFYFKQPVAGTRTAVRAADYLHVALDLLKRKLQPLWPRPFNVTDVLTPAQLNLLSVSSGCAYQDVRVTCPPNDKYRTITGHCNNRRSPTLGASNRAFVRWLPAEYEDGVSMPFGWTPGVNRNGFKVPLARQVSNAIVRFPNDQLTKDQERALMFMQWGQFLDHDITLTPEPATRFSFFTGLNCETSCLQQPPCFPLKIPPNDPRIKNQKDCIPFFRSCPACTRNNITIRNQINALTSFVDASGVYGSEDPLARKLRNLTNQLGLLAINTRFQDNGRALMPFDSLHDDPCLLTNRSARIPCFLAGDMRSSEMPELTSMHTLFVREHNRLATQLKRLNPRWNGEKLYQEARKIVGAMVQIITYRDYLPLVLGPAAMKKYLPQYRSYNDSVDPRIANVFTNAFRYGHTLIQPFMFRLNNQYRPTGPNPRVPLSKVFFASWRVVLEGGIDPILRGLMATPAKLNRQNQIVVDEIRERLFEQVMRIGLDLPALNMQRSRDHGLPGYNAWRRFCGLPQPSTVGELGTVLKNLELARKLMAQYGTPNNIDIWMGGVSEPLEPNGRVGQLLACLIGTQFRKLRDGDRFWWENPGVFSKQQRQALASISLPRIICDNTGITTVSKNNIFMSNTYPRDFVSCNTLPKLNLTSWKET
Sequence of UniProt P51575 (whole entry, unmodified, looked up): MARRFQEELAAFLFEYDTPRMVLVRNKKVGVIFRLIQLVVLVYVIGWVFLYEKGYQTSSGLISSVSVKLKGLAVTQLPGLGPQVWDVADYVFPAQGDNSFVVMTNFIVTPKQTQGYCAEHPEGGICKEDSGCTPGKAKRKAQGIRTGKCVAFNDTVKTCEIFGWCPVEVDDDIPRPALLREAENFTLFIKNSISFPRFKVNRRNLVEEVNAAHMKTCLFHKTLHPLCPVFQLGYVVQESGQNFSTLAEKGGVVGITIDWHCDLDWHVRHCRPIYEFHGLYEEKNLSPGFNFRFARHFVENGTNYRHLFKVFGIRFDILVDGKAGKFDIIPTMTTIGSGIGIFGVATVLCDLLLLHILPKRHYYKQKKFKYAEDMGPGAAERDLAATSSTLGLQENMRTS
Sequence of UniProt P12763 (whole entry, unmodified, looked up): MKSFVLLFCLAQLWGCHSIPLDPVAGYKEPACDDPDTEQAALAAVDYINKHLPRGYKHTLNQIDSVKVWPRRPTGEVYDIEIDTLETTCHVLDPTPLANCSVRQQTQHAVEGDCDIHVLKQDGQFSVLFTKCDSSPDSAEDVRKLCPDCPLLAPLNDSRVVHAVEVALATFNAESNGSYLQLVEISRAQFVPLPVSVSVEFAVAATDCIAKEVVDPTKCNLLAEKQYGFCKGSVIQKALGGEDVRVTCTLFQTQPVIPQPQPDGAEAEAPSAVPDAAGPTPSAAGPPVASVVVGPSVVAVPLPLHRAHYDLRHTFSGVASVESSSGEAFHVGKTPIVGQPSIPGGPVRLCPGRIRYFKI
Sequence of UniProt Q8TDW0 (whole entry, looked up): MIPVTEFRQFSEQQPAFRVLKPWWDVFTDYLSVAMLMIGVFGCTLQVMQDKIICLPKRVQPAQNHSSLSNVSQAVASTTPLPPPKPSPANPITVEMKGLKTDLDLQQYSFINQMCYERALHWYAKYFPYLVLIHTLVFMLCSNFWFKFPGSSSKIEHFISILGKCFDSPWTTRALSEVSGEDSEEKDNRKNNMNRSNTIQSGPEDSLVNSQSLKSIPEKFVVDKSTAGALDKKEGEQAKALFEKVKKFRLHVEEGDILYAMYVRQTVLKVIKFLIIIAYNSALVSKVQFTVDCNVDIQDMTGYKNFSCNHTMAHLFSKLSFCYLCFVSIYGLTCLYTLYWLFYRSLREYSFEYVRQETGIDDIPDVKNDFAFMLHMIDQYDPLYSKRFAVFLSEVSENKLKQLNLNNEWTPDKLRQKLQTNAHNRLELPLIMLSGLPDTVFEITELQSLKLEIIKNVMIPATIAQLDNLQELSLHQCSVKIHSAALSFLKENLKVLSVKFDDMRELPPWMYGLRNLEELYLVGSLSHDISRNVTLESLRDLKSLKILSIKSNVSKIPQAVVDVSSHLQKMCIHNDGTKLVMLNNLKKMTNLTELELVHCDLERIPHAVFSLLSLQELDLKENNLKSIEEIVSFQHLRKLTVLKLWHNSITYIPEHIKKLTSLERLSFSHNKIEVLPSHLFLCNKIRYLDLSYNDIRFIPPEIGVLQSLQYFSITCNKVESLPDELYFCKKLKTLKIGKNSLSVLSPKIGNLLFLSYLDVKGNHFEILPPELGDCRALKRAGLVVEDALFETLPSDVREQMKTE
Sequence of UniProt Q8NEZ5 (whole entry, looked up): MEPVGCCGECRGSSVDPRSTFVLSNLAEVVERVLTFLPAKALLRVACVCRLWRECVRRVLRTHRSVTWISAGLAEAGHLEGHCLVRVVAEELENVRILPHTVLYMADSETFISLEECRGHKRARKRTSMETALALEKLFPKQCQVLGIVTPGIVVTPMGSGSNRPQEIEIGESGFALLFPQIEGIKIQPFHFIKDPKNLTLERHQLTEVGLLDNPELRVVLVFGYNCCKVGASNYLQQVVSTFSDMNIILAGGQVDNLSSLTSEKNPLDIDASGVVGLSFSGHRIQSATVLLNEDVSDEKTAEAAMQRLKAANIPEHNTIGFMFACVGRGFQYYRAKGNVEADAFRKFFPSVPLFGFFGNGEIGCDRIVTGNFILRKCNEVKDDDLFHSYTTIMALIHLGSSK
Sequence of UniProt O75925 (whole entry, looked up): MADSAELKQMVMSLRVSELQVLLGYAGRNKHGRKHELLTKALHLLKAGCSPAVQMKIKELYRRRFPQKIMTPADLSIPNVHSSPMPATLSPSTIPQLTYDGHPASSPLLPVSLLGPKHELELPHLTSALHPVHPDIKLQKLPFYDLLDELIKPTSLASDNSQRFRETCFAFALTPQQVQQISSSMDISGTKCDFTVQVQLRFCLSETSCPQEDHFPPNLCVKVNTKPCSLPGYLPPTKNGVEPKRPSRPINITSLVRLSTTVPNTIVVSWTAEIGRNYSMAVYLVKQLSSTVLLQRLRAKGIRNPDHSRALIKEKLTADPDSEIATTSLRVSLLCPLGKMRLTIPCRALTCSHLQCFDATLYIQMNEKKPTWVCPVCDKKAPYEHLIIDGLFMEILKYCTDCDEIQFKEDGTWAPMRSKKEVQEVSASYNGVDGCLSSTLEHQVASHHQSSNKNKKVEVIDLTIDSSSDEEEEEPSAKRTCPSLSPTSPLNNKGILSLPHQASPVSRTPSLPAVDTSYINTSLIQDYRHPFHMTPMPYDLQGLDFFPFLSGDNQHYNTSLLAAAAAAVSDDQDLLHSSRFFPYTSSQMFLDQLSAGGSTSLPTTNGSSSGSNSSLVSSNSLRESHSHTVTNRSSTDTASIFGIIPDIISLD

`Oc1ccc([C@@H]2c3c(O)cc(O)cc3[C@@H]3c4c(cc(O)c5c4[C@@H]2[C@H](c2ccc(O)cc2)[C@H]5c2cc(O)cc4c2[C@@H](c2cc(O)cc(O)c2)[C@H](c2ccc(O)cc2)O4)O[C@H]3c2ccc(O)cc2)cc1` — result for “cooperativity factor alpha”: 10.2 (Pancreatic alpha-amylase (Homo sapiens, UniProt P04746); enzyme activity, inhibitor).
`Cc1cccc(N2CC(C(=O)O)CC2=O)c1` (stereo not shown) has a fold enrichment of 1.51 (F-box only protein 22, with SKP1 (Homo sapiens, UniProt Q8NEZ5); binding, affinity selection mass spectrometry; baseline: other proteins in batch).
The Hill coefficient of `COc1cc(C(=O)NS(=O)(=O)c2ccccc2C)ccc1Cc1cn(C)c2ccc(NC(=O)OC3CCCC3)cc12` is reported as 1.34 (LRRC8A/LRRC8C (Homo sapiens, UniProt Q8IWT6+Q8TDW0); ion current, inhibitor, whole-cell patch clamp; HCT116 LRRC8 knockout, transfected; +100 mV, LRRC8A/LRRC8C heteromer).
The ΔS of `Nc1nc2c(ncn2[C@@H]2O[C@@H]3COP(=O)(O)O[C@H]4[C@@H](O)[C@H](n5cnc6c(=O)[nH]c(N)nc65)O[C@@H]4COP(=O)(O)O[C@H]3[C@H]2O)c(=O)[nH]1` is reported as 23.6 cal/mol/K (Cell cycle histidine kinase CckA, DHp-CA domains (Caulobacter vibrioides, UniProt Q9X688); binding, ITC; together with: ADP 5 mM).
With `CC(C)C[C@@H]1NC(=O)[C@H](C(C)C)NC(=O)CNC(=O)[C@H](CC(N)=O)NC(=O)[C@@H]2CCCN2C(=O)[C@H](Cc2ccc(O)cc2)NC(=O)[C@H](CCCNC(=N)N)NC(=O)[C@H](Cc2ccccc2)NC(=O)[C@@H](NC(=O)[C@H](CCCCN)NC(=O)[C@@H]2CCCN2C(=O)[C@H](C)NC(=O)[C@H](C)NC(=O)[C@@H](N)Cc2ccc(O)cc2)CSSC[C@@H](C(=O)N[C@H](C(N)=O)[C@@H](C)O)NC(=O)[C@H](C)NC1=O` the -ΔH was 1.78 kcal/mol (Alpha-2-HS-glycoprotein, asialo (AHSG, Bos taurus, UniProt P12763); binding, isothermal titration calorimetry; pH 7.0, 25 °C, together with: asialofetuin).
With `CC(=O)N[C@H](C(=O)N1C[C@H](O)C[C@H]1C(=O)NCc1ccc(-c2scnc2C)cc1)C(C)(C)SCCCCCCNC(=O)C[C@@H]1N=C(c2ccc(Cl)cc2)c2c(sc(C)c2C)-n2c(C)nnc21` the binding stoichiometry was 0.88 ± 0.07 (BRD2/VHL, BD1; with VCB (Homo sapiens, UniProt P25440+P40337); ITC; concentration not given, 25 °C, ternary complex, together with: BRD2 BD1).
`COCCC(=O)N1CCC(Oc2ccccc2)C1` (stereo not shown): “log fold enrichment” -0.236 (Coatomer subunit beta', WD repeat domain (Homo sapiens, UniProt P35606); binding, affinity selection mass spectrometry; baseline: other proteins in batch).
`COc1cc(NC(C)CCCN)c2ncccc2c1` (stereo not shown) has a koff of 1.55e-06 s⁻¹ (Nuclear receptor subfamily 2 group C member 2 ligand-binding domain; SPR imaging; 600 nM).
With `CCCC[C@H]1CN(c2cccc(Cl)c2)C(=O)CN1Cc1cncn1Cc1ccc(C#N)cc1` the IC50 was 100 ± 10 nM (Cryptococcus neoformans farnesyltransferase; enzyme activity, inhibitor, fluorescence; together with: 1 µM FPP, 0.5 µM dansylated peptide).
`N#Cc1ccc2[nH]cc(CCCCN3CCN(c4ccc5oc(C(N)=O)cc5c4)CC3)c2c1` gave a Hill coefficient of 1.88 ± 0.31 (SLC6A4 (Homo sapiens, UniProt P31645, Y579A); [3H]5-HT uptake, inhibitor; COS-7).
`CC1CCCN(C(=O)c2cc3ncccn3n2)C1` (stereo not shown) — result for “log fold enrichment”: 0.0363 (E3 SUMO-protein ligase PIAS1 (PIAS1, Homo sapiens, UniProt O75925); binding, affinity selection mass spectrometry; baseline: other proteins in batch).
`Nc1ncnc2c1ncn2[C@@H]1O[C@H](COP(=O)(O)OP(=O)(O)O)[C@@H](O)[C@H]1O` gave a ΔH of -6.3 ± 0.45 kcal/mol (GUK1 (Homo sapiens, UniProt Q16774, S18A); binding, ITC).
`Oc1ccc(/C=C/c2cc(O)cc(O)c2)cc1` — result for “ΔH of exothermic site”: -5.48 kcal/mol (O-methyltransferase (Sorghum bicolor, UniProt A0A1B6PFV1); two-sets-of-sites model, together with: SFG).
`O=C1OC(c2ccccc2)=N/C1=C\c1ccc(O)cc1` gave a Vmax of 0.046 mM/min (MAL12 (Saccharomyces cerevisiae S288c, UniProt P53341); inhibitor, Lineweaver-Burk; 3200 ppm, together with: pNPG substrate).
The koff of `Cc1cc(C(C#N)c2ccc(Cl)cc2)c(Cl)cc1NC(=O)c1cc(I)cc(I)c1O` (stereo not shown) is reported as 1.11e-05 s⁻¹ (Nuclear receptor subfamily 2 group C member 2 ligand-binding domain; SPR imaging; 600 nM).
`CC[C@H](C)[C@H](NC(=O)[C@H](CCC(=O)O)NC(=O)[C@H](CCC(=O)O)NC(=O)[C@@H]1CCCN1C(=O)[C@H](CC(=O)O)NC(=O)[C@H](C)NC(=O)[C@H](CCC(N)=O)NC(=O)[C@@H](NC(=O)[C@H](C)NC(=O)[C@@H](NC(=O)[C@H](CO)NC(=O)[C@@H](NC(=O)[C@H](CCCCN)NC(=O)[C@@H](N)Cc1ccc(O)cc1)[C@@H](C)O)C(C)C)[C@@H](C)O)C(=O)N[C@H](C(=O)N[C@H](C(=O)N[C@@H](CC(C)C)C(=O)N[C@@H](CC(=O)O)C(=O)N[C@@H](CC(=O)O)C(=O)N[C@@H](CC(=O)O)C(=O)N[C@@H](CC(=O)O)C(=O)O)C(C)C)[C@@H](C)CC`: “enthalpy change (ΔH)” 5.1 ± 0.54 kcal/mol (Small ubiquitin-related modifier 1 (Homo sapiens, UniProt P63165, C52A); isothermal titration calorimetry; concentration not given, pH 7.4, SUMO1 construct).
The koff of `CCCN[C@H]1CCc2nc(N)sc2C1` is reported as 5.95e-05 s⁻¹ (Nuclear receptor subfamily 2 group C member 2 ligand-binding domain; binding).
The IC50 of `CCCC[C@H]1CN(c2cccc(OC(F)(F)F)c2)C(=O)CN1Cc1cncn1Cc1ccc(C#N)cc1` is reported as 340 ± 220 nM (Cryptococcus neoformans farnesyltransferase; enzyme activity, inhibitor, fluorescence; together with: 1 µM FPP, 0.5 µM dansylated peptide).
Under “cells with nuclear reporter”, `CC[S+]([O-])c1nc(-c2ccccc2)cc(C(F)(F)F)n1` (stereo not shown) is recorded as 1.68% and 1.79% and 1.83% (Exportin-1 (XPO1, Homo sapiens, UniProt O14980); nuclear export, high content imaging; HeLa Kyoto reporter; 0.158 µM, 2 h).
`C=CC(=O)N1CCC(COCC(=O)N2CCN(c3nc(-c4cnc(N)nc4C(F)F)nc(N4CCOC[C@@H]4C)n3)CC2)CC1` gave a remaining binding of 100% (EPHA4 (Homo sapiens, UniProt P54764); KINOMEscan; 1 µM).
The decatenated DNA of `O=c1nc(SCc2cc(F)cc(C(F)(F)F)c2)nc(SCc2ccc3sccc3c2)[nH]1` is reported as 0% (TOP2A (Homo sapiens, UniProt P11388); decatenation; 125 µM, replicate 2).
For `Nc1ncnc2c1ncn2[C@@H]1O[C@H](COP(=O)(O)CP(=O)(O)OP(=O)(O)O)[C@@H](O)[C@H]1O`, the specific binding was 4670 CCPM and 4350 CCPM (P2X purinoceptor 1 (P2RX1, Homo sapiens, UniProt P51575, L218T); saturation binding; HEK293; 103 nM).
`CC[C@@H]1[C@H](F)C(=O)N[C@@H]1COc1nccc2cc(C(N)=O)c(OC)cc12` gave an inhibition of 6.9% (MARK2 (Homo sapiens, UniProt Q7KZI7); ATP-site probe binding, ActivX profiling; THP-1 cell lysate; 0.04 mM, Lys1 site).
With `O=C1c2ccccc2CCCN1CCCCN1CCN(c2ccccn2)CC1` the inhibition was 13.2% (HTR4 (Homo sapiens, UniProt Q13639); radioligand binding; concentration not given).
`O=[N+]([O-])c1cc(C(F)(F)F)ccc1NCc1ccsc1` gave a ΔH of -7.03 ± 0.12 kcal/mol (Endothelial PAS domain-containing protein 1, PAS-B domain (EPAS1, Homo sapiens, UniProt Q99814); binding, ITC, reverse mode).
Under “thermal stability ratio”, `O=C(COP(=O)(O)O)[C@@H](O)[C@H](O)[C@H](O)COP(=O)(O)O` is recorded as 0.769 and 0.389 and 0.714 (Small ribosomal subunit protein eS7 (Homo sapiens, UniProt P62081); thermal proteome profiling, measured: RPS7; HepG2 cell lysate; concentration not given, 57 over 37 °C; baseline: compound over control).
For `CC(C)OCCn1c(=S)[nH]c(=O)c2[nH]ccc21`, the MPO activity was 45.4% and 38.1% and 45.9% and 40.3% and 29.4% and 32.7% (Myeloperoxidase (Mus musculus, UniProt P11247); mouse, zymosan or thioglycolate peritonitis, peritoneal fluid; 60 mg/kg; baseline: peritonitis vehicle).
`CNC1=NS(=O)(=O)c2ccccc21`: activity “inactive” (PKLR (Homo sapiens, UniProt P30613); enzyme activity, activator; 10 µM).
